Experimental data gathered from unrelated publications.
± gives the spread as reported.
ESR1: Estrogen receptor (ESR1, Homo sapiens, UniProt P03372)

Chains of the proteins cited; added tags and fusions are not shown. Residues count along the entry.
UniProt P03372, whole entry: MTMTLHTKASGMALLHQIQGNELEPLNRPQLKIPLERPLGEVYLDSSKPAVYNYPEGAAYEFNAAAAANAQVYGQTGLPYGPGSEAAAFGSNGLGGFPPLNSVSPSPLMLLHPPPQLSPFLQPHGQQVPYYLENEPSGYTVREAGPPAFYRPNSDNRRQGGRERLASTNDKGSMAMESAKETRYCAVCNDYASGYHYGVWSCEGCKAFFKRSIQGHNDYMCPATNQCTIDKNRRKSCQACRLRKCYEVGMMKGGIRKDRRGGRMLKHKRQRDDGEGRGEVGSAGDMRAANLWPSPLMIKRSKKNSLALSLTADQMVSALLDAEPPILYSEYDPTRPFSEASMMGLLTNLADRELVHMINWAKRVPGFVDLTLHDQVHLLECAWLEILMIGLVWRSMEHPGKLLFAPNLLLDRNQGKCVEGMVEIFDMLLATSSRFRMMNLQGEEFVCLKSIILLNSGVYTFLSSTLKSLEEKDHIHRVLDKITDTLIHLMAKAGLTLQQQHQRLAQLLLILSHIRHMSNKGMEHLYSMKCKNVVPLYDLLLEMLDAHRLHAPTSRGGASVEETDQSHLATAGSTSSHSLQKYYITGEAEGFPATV
UniProt O88693, whole entry: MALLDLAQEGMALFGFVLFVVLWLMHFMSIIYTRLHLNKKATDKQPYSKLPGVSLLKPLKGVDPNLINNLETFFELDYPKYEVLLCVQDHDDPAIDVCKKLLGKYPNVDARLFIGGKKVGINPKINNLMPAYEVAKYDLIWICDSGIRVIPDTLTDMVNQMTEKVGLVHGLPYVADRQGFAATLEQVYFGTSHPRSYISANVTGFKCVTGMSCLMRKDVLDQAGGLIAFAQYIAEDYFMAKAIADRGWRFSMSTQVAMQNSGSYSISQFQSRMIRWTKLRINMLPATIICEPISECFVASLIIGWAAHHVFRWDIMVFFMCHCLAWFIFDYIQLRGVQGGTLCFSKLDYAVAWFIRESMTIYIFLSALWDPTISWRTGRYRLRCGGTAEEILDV
UniProt A0A381MCS3, 1-451: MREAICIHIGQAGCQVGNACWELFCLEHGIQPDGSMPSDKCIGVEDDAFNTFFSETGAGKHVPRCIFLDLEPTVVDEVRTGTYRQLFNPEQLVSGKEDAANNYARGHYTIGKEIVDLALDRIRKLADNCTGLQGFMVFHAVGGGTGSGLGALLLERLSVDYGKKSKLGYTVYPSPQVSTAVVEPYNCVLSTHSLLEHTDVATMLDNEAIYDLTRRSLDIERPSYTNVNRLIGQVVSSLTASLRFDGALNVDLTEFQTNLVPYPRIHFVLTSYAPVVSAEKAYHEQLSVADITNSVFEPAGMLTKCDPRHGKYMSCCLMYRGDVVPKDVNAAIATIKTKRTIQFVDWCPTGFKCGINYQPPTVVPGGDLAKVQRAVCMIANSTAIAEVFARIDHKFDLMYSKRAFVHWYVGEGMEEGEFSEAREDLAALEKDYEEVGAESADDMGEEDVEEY
UniProt A4HTR0, 1-443: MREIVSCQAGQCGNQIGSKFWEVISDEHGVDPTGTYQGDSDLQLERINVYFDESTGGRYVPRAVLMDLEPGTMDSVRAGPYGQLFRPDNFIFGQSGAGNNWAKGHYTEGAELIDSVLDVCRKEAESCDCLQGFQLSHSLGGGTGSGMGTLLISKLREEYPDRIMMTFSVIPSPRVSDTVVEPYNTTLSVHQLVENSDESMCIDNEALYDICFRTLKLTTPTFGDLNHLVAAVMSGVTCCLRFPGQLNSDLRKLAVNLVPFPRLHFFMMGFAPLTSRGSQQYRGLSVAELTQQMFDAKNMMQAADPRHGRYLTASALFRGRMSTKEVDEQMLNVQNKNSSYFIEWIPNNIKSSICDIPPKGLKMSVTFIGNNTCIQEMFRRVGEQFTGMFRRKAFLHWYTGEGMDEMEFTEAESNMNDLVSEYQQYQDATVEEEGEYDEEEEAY
UniProt Q9NRM7, whole entry: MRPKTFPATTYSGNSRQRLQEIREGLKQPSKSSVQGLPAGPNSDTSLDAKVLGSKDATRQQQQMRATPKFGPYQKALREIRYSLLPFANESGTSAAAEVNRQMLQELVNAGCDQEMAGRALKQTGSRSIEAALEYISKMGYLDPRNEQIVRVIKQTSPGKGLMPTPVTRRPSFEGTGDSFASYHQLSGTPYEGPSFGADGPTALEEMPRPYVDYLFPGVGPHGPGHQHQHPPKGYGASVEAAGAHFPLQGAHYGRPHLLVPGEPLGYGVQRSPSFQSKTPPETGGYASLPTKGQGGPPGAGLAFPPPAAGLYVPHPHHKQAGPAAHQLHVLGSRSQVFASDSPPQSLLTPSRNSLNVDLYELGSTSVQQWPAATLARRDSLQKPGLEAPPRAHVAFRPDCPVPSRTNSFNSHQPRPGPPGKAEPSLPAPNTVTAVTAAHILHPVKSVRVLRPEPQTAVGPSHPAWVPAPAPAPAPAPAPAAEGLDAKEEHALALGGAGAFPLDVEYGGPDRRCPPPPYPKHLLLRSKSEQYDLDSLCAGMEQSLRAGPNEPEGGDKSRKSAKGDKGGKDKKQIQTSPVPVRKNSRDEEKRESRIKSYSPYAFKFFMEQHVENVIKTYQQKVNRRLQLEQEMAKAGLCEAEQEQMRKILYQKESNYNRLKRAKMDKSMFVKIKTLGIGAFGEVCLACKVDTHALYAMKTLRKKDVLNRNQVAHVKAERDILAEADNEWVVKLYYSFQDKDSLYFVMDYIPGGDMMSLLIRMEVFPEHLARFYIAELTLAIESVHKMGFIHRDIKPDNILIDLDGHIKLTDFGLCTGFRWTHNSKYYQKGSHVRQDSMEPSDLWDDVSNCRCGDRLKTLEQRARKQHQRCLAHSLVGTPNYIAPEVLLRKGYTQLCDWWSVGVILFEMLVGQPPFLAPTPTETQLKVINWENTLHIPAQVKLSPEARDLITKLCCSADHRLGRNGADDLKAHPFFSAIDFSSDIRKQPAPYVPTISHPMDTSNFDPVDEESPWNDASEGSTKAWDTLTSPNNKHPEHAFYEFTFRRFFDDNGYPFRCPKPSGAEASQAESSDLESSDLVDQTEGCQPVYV
UniProt P26038, whole entry, looked up: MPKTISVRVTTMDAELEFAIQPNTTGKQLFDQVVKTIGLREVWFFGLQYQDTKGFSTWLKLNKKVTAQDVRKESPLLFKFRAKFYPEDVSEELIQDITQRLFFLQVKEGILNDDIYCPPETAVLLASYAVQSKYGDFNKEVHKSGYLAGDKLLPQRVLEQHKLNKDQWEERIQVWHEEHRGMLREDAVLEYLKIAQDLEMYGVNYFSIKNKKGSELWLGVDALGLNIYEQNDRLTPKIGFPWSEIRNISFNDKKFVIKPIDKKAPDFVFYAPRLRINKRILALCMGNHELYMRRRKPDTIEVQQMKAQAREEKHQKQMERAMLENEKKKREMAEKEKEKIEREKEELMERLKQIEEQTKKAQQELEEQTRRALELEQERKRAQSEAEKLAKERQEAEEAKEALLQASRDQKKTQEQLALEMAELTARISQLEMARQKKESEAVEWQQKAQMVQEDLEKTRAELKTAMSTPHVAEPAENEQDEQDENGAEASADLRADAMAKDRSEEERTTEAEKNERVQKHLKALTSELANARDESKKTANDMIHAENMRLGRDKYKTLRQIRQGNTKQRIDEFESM
UniProt Q5S007, whole entry: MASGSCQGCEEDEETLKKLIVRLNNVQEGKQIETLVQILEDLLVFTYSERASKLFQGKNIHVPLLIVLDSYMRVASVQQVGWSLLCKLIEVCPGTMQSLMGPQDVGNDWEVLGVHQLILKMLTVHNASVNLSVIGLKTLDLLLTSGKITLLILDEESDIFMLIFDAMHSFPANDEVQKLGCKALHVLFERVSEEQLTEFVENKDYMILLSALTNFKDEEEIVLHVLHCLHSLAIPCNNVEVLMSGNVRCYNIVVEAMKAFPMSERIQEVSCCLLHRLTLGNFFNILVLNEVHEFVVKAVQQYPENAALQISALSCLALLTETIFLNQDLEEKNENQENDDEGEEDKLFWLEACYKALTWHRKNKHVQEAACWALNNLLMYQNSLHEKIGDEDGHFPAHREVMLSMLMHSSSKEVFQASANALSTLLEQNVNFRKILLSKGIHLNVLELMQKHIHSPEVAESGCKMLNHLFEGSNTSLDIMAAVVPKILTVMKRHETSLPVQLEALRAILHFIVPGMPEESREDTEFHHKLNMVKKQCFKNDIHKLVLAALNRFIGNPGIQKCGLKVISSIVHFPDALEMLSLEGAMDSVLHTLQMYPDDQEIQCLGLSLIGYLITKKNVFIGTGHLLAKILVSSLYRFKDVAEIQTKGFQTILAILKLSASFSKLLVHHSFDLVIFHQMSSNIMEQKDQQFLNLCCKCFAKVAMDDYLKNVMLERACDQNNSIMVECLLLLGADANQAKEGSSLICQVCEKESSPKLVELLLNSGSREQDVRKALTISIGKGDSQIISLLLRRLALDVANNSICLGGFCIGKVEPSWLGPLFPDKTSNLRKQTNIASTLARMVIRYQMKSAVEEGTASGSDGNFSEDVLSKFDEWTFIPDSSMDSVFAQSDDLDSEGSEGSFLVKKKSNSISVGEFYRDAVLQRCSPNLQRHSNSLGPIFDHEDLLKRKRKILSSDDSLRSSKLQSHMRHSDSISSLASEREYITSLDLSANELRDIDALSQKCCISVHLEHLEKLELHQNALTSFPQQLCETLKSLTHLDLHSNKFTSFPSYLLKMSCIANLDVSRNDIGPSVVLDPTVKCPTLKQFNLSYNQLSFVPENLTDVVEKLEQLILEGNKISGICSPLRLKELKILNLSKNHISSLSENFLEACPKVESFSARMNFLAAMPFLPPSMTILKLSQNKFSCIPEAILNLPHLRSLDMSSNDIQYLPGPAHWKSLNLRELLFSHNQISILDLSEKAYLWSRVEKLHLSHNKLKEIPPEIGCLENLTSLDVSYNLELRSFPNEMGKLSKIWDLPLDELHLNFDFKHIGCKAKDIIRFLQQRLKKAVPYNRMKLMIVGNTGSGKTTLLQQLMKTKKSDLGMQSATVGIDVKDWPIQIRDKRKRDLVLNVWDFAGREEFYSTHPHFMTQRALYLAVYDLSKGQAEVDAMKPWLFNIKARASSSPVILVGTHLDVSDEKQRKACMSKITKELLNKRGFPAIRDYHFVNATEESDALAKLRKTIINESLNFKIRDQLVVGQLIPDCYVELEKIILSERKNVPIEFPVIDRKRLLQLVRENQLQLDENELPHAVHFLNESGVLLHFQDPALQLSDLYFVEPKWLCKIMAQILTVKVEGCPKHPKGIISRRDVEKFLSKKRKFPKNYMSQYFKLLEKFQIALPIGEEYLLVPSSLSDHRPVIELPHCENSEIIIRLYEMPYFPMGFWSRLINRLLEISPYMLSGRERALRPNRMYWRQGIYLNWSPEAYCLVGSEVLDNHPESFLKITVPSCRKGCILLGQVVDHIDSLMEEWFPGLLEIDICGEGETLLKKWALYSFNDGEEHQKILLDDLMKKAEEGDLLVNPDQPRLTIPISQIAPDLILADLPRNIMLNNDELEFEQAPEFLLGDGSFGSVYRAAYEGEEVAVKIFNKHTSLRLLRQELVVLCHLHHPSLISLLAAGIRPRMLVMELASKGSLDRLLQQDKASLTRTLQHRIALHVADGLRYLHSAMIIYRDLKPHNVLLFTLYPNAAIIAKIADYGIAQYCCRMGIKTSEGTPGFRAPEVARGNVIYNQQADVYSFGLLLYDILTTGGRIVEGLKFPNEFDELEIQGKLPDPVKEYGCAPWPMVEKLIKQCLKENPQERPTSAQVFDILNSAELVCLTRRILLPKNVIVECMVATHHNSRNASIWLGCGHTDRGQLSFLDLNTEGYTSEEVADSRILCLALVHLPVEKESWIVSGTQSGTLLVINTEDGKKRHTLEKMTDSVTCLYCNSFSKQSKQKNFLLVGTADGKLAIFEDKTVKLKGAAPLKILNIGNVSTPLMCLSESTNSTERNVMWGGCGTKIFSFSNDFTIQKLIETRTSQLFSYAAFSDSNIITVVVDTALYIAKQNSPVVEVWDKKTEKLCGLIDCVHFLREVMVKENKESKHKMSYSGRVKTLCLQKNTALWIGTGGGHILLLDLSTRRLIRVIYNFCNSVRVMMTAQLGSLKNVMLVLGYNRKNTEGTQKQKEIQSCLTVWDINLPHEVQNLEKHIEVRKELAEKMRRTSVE
UniProt Q8IXJ6, whole entry, looked up: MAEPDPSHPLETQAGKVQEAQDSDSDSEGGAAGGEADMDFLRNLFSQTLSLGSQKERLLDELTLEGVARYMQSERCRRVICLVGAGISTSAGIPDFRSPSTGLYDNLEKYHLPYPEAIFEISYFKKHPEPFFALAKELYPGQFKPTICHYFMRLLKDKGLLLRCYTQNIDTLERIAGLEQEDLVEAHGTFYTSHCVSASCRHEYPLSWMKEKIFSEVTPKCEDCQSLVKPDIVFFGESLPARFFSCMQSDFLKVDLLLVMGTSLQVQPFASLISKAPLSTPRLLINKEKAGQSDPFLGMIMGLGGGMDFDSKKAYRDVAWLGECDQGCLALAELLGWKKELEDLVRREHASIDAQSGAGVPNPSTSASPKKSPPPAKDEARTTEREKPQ

| SMILES | target | test | system | conditions | IC50 [µM] |
| --- | --- | --- | --- | --- | --- |
| O=C(CC1Cc2ccccc2C1)N[C@H](CN1CC[C@@H](F)C1)[C@H](O)c1ccc(OC(F)(F)F)cc1 | UGCG (Canis lupus familiaris, UniProt A0A8I3MXG6) | enzyme activity, inhibitor | MDCK cell homogenate membranes | – | > 0.3 |
| COc1ccc2[nH]cc(/C=C/c3cccc(O)c3)c2c1 | Amyloid-beta precursor protein, amyloid-beta peptide (APP, Homo sapiens, UniProt P05067) | Aβ42 oligomerisation, ELISA | – | – | 7 |
| CC(C)(C)c1ccc(SCC(=O)Nc2ccc3nc(SCC(=O)NC4CC4)sc3c2)cc1 | ESR1 | reporter gene, antagonist | HEC-1 transfected ERα luciferase reporter | – | 20 to 50 |
| CN1CC[C@H](c2c(O)cc(O)c3c(=O)cc(-c4cccc(Cl)c4)oc23)[C@H](O)C1 | Cyclin-dependent kinase 2, part with cyclin A (CDK2, Homo sapiens, UniProt P24941) | enzyme activity, inhibitor | – | with cyclin A, with: histone H1 substrate | 0.164 |
| OC[C@H]1[C@@H](O)[C@H](O)[C@@H](O)CN1CCCCCOCc1ccc(Br)cc1 | Ugcg (Mus musculus, UniProt O88693) | inhibitor, C6-NBD-ceramide in situ | RAW264.7 | – | 0.021 |
| Cc1cc(NC(=O)c2cccc(NC(=O)C3=CC(C)(C)CCC3=O)c2)ccc1Nc1nccc(-c2cccnc2)n1 | MAPK8 (Homo sapiens, UniProt P45983) | enzyme activity | – | with: glutathione 10 mM | 0.78 ± 0.159 |
| Cc1ncc(OCc2ccc3c(c2)c(=O)c(C(N)=O)cn3-c2ccc(F)cc2)cn1 | Grm2 (Rattus norvegicus, UniProt P31421) | calcium mobilization, negative allosteric modulator | – | – | 0.277 |
| COC(=O)[C@@H]1C(C=Nc2ccccc2)=Cc2cc3c(cc2[C@H]1c1cc(OC)c(OC)c(OC)c1)OCO3 | Tubulin alpha/beta heterodimer (Leishmania infantum, UniProt A0A381MCS3+A4HTR0) | tubulin polymerization, inhibitor | – | 37 °C, with: tubulin 1.2 mg/mL | 5.6 ± 0.5 |
| Nc1nccc(-c2ccc(C3(c4ccc(Cl)cc4)CCNCC3)cc2)n1 | LATS2 (Homo sapiens, UniProt Q9NRM7) | kinase activity, inhibitor, radiometric HotSpot | – | with: ATP 10 µM | 0.023 |
| CCOc1ccccc1Nc1nnc(SCC(=O)Nc2cc(F)ccc2F)s1 | CD28, with CD80 (Homo sapiens, UniProt P10747) | protein interaction, NanoBiT complementation | CHO-K1 | 2 h | 21.9 |
| CN1C(=S)Cc2ccccc21 | MMP2 (Homo sapiens, UniProt P08253) | inhibitor | – | – | 103 ± 10.6 |
| COC(=O)Nc1ccc(-c2nc3ccc(NC(=O)OC)cc3s2)cc1 | Moesin, with CD44 (Homo sapiens, UniProt P26038) | MSN-CD44 interaction, inhibitor, TR-FRET | – | with: CD44 | 2.2 |
| N#Cc1cnc(Nc2nc3ccccc3o2)nc1-c1ccc(Cl)cc1 | Grm5 (Rattus norvegicus, UniProt P31424) | calcium mobilization, negative allosteric modulator | – | with: glutamate EC80 | 0.315 ± 0.11 |
| COc1cc(C(=O)N2CCC(N3CCN(C)CC3)CC2)ccc1Nc1ncc2c(n1)N(C(C)C)c1ccccc1C(=O)N2C | LRRK2 (Homo sapiens, UniProt Q5S007) | kinase activity, Adapta | – | – | 0.054 ± 0.004 |
| COc1cc(-c2nc3sc4cc(-c5ccc(O)cc5)ccc4c3c(=O)[nH]2)ccc1OCC(=O)O | FGFR1 (Homo sapiens, UniProt P11362) | kinase activity, inhibitor, AlphaScreen | – | with: biotinylated peptide substrate | 6 |
| O=C(CCCn1c(=S)[nH]c2ccccc2c1=O)N1CCN(c2ccc(Cl)cc2)CC1 | ESR1 | reporter gene, antagonist | HEC-1 cells transfected with ERα | with: estradiol 1 nM | 7.1 |
| COc1cc2ncnc(N[C@H](C)c3ccccc3)c2cc1OC | Son of sevenless homolog 1, with KRAS (SOS1, Homo sapiens, UniProt Q07889) | KRAS binding displacement, inhibitor | – | GDP-dependent KRAS | 1.3 |
| CCCCCCCCCCCCNC(=S)NCCCC[C@H](NS(=O)(=O)c1ccccc1)C(=O)N[C@H](C)C(=O)N[C@@H](CCCNC(=N)N)C(N)=O | SIRT2 (Homo sapiens, UniProt Q8IXJ6) | demyristoylation, inhibitor | – | NAD+ 500 µM, with: myristoylated peptide 50 µM | 6.6 ± 0.6 |
| COc1ccc2[nH]cc(/C=C/c3ccncc3)c2c1 | IDO1 (Homo sapiens, UniProt P14902) | enzyme activity, inhibitor | – | – | > 50 |
| O=C(O)c1cc(C(=O)N[C@@H](CS)C(=O)O)cc([C@H]2CCN[C@@H]2C(=O)O)c1 | AMPA receptor (rat) | binding, radioligand binding | rat cortical synaptosomes | with: [3H]AMPA | 10 to 50 |

For quick reference, copied from above:
| SMILES | target | test | system | conditions | IC50 [µM] |
| --- | --- | --- | --- | --- | --- |
| CN1C(=S)Cc2ccccc21 | MMP2 (Homo sapiens, UniProt P08253) | inhibitor | – | – | 103 ± 10.6 |
